Results from different studies.
Numbered parts are unrelated; each lists some results of a single study.

Study 1 — method: aptamer microarray, sandwich; molecule type: DNA with 2'F-ANA; matrix: in vitro; tested at: 200 nM; with: Cy3 exosite-II aptamer, 400 nM; reading: higher = stronger binding; sequence: GGTTGGTGTGGTTGG
Target: Prothrombin, mature alpha-thrombin (F2, Homo sapiens, UniProt P00734)
Setting: whole 15-mer aptamer, many near background
Modification | mean fluorescence intensity
2'F-ANA at 2 3 4 5 6 7 | 92.2 a.u.
2'F-ANA at 1 2 3 7 9 15 | 260 a.u.
2'F-ANA at 4 5 7 8 10 15 | 75.8 a.u.
2'F-ANA at 1 3 5 6 8 12 13 14 | 47.3 a.u.
2'F-ANA at 1 4 5 6 9 10 11 12 13 14 15 | 54.3 a.u.
2'F-ANA at 2 4 5 7 9 10 11 12 14 | 86.2 a.u.
2'F-ANA at 2 5 9 10 11 12 13 15 | 63 a.u.
2'F-ANA at 1 3 4 8 10 11 12 | 72 a.u.
2'F-ANA at 2 3 6 7 10 13 | 352 a.u.
2'F-ANA at 2 3 4 6 11 12 13 | 551 a.u.
2'F-ANA at 1 4 5 7 8 9 10 12 13 | 45.5 a.u.
2'F-ANA at 1 2 4 6 8 10 11 12 14 | 46.9 a.u.
2'F-ANA at 1 2 6 7 14 15 | 56.5 a.u.
2'F-ANA at 1 5 7 9 11 13 | 50 a.u.
2'F-ANA at 4 5 7 8 9 10 12 14 | 45 a.u.
2'F-ANA at 1 2 4 5 7 10 11 14 | 45.8 a.u.
2'F-ANA at 2 9 10 11 13 14 | 85.4 a.u.
2'F-ANA at 1 2 6 8 9 14 | 55 a.u.
2'F-ANA at 1 5 9 10 14 | 46.6 a.u.
2'F-ANA at 5 6 9 10 11 12 13 | 49.4 a.u.
2'F-ANA at 2 3 8 10 12 13 14 | 341 a.u.
2'F-ANA at 4 6 7 8 9 10 | 128 a.u.
2'F-ANA at 1 2 4 7 9 10 12 13 14 15 | 45 a.u.

Study 2 — method: RNA Bind-n-Seq; molecule type: RNA; matrix: in vitro; tested at: 365 nM; relative to: no-protein control; reading: higher = stronger binding
Target: RNA binding protein fox-1 homolog 2, RRM domain, GST-SBP tag (RBFOX2, Homo sapiens, UniProt O43251-10, residues 100-194)
Setting: natural RNA segment, single round, ends assumed
Residues (chain): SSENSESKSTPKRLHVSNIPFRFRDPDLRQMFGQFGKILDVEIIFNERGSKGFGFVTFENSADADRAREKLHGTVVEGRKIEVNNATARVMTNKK
Sequence | RBNS enrichment (R)
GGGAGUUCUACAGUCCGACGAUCGGAAGAUACCGAUAAAUAACAUGGUUUAAGUGUCAAUAAAAUUCAUUCGAAGAGAUCAGGCGCGGUGGCUCACGCCUGUAAUCCCAGCAUUUUGGGAGGCUGAGGCAGGUUGGAAUUCUCGGGUGCCAA | 0.63
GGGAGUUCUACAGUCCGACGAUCUUGAGUGAUGGUGUUUCAAAUCCUGUAGUCCUAUGGUGGCUUUCCUUGCCUGUUACUUUAGAGAUCUAGCCACUAGGCAGUCGCUUCUAAGAAAAUUAUUGAUGAAGUGGUGGAAUUCUCGGGUGCCAA | 0.75
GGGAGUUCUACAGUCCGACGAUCUAGUGAUUUUAGGGCUUUGUUAUUUAACUUAUUUCAAGGGUGCUGUGCUCAGCCCUGCCCAUGGCUGUGCAGCUCCCUCCGUGCCUCAGAUCUGCUGUAGCCAGUGCAGAUGGAAUUCUCGGGUGCCAA | 0.379
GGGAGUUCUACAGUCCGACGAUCCUUGAGAAUUUCAUGAGCACUUUAAAAUCUGAACUUUCAAAGCUUGCUAUUAAAUCAUUUAGAAUGUUUACAUUUACUAAGGUGUGCUGGGUCAUGUAAAAUAUUAGACAUGGAAUUCUCGGGUGCCAA | 1.22
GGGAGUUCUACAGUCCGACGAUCCUCCCUUGUCAUCAGUAGUAACCUAUACUCAAGUGCCUGUGUCUUCUCAUCUCACUUAGGAUUGUACCCCAAAGUCCUACAUGAUUGGCUUUAAAUGUCCGGGAAAACUAUGGAAUUCUCGGGUGCCAA | 0.616
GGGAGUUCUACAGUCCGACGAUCCUCACUCGACCUUGGGAGGCCUCCCACGAAGGGCGAAGAUGGCCGAGAUGAUCCUAAAAAUAACCGAAGAAAGAGAGGACCAACCAGAAUUCCCUUUGGACAUUUGUGUUUGGAAUUCUCGGGUGCCAA | 0.383
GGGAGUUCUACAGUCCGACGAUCCCAGUGCACCUCCCUCCCCAGCUCCGGAGGGGGUCCUCCUCGCUCCUCCUUCCCAGGGACCAGCACCUUCAAGCGCUCCAGGGCCGUGAGGGCAAGAGGGGGACCUGCCAUGGAAUUCUCGGGUGCCAA | 0.381
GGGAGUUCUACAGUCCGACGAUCGUAGUUGUUCACUGCUUUCCUGGAUGGAUGGGACUCUUAUGUCAUAACUUCUGUUACUCCUUUGGCCCAUAGCUAAGGUCAUCCUUCCCCACAGGGGUGGCUUUGGGAUUUGGAAUUCUCGGGUGCCAA | 0.339

Study 3 — method: protein-binding microarray; molecule type: double-stranded DNA, one strand shown; matrix: in vitro; tested at: not given; reading: higher = stronger binding
Target: Myc proto-oncogene protein, bHLH-zipper, MAX partner unstated (MYC, Homo sapiens, UniProt P01106, residues 368-449)
Chain of UniProt P01106 (368-449, looked up): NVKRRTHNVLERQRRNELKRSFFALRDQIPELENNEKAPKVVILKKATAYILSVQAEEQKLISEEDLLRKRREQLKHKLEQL
Setting: k-mer, scored over probes, only values ≥0.25
Sequence | E-score
AACCGCAC | 0.282
CACGATAC | 0.286
CCGCCACG | 0.398
GCGGGCAC | 0.277
ATGAGGCG | 0.297
CGTACACG | 0.4
CGCGCCAC | 0.257
CCCCAACC | 0.339
ACATGATG | 0.285
CGCCGCAC | 0.347
ACCACGCA | 0.406
CGGTGCAC | 0.264
GGCGTGGA | 0.385
ACGCGTGA | 0.39
ACACACGA | 0.329
GTGGGAAC | 0.296
CACGCTGC | 0.435
ATGCGGTG | 0.309
CGTGACGA | 0.263
AATGCATG | 0.381
CTAACCAC | 0.259
CGTGTTCC | 0.305
GACCCACC | 0.271
CGCCCCAC | 0.366
CACGAGTG | 0.379

Study 4 — method: RNA Bind-n-Seq; molecule type: RNA; matrix: in vitro; tested at: 100 nM; relative to: input RNA pool; reading: higher = stronger binding
Target: RING finger protein unkempt homolog, zinc fingers 1-6, SBP tag (UNK, Homo sapiens, UniProt Q9C0B0, residues 30-357)
Chain of UniProt Q9C0B0 (30-357, looked up): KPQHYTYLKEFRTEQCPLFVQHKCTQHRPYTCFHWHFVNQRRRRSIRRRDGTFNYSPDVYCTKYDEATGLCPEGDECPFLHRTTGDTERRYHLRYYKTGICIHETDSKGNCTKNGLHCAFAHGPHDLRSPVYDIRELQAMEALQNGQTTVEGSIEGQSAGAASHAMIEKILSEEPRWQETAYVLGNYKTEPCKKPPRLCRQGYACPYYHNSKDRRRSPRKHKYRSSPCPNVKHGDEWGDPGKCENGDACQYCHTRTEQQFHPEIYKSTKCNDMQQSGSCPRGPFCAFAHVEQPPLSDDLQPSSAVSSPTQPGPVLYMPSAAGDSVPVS
Setting: RNA with constant flanks, vertebrate orthologous sites, ends assumed
Sequence | bound/input enrichment [ratio]
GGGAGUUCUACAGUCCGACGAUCAUUUUUUAAAGUUUUUUUAAUUUAAUUUUUCCUUUUGGGGGUAAAGUUUGCUCUACCAAAUAGUGAUCGUAACAAAUUGAUCUGUUUUGGAUGUUGCUAUAGUGACAUGCAGUUAUAUAUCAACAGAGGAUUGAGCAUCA | 0.43
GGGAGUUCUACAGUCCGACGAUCUGCUUUUAAAUAAACGUCUGUAAAUGUAUAUUGAGAGAAUUGAAGUAUUUAUAAACAGAGUGAUUUAUUUAAGGGAAAGGUCAUUCCUCUUUCAUACGUGAUCUGUGUUAAUUCCAUUCCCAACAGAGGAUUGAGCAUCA | 0.236
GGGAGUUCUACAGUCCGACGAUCACCAUGUACCCUGCUGUAUAAUAGACAACCAAGACACUUGUCAACUAUUGAUACAGGUGUUAGUCCCAAACCACUUUUUAUAUGUUUUAAAUUUUGAAAUUCAAGUGUAUCUGCCAUAACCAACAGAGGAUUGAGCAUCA | 1.76
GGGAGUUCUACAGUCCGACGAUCGUGCAAGGAGAUUAUUCCAACUAGUGAAUUUAUUAACAGUAAGUUGACAGCAAAAGCAAAUAGGCAGCUUCAAGAUCCUUUAGUAAUCAUGACAGGAAAUAUCCCAACGUGGCUUACUGACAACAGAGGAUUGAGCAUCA | 0.833
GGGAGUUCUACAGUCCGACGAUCUACUGGUAGGAAAUAUGUCUACCCAGAGAAGUAAUGCUCUUUAAAUAUUAUUUAAUAAUUCAGCUACAGUCUUUGCAAAGUAUUAAAUUGUAUUUCAAGCAGUUGAAUAAAUUGUAGAGUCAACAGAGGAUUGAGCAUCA | 0.187
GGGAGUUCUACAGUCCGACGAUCUCAGUCCCUUGGGCCGGGACAGAUUUUUUUUAACGUCUCGAAACUUAAAUUCUGUGCUUGUAGGAUACUGUAACCUUUUUGUCUUUUUUUUUUUUUUUUUUUUUUUAAAAAAAAACCCUCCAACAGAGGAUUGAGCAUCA | 0.881
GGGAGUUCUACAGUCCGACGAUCGUGACUUUGGAAGUCCGCAGUGUCUCAUUGCAGAUAAUUUUUAGCUUAGGGCCUGGUGACUAGGUAGGUUCUGUCCUUUCCAAUCGGAGACCUCUGCCGCAAACAUGCUCCGCCAGAUCACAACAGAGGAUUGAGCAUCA | 0.543
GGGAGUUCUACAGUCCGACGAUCCUCCCCCUUACCCAUAAAAUAGAACUUUUUAAAAUUGUGUUGCCACCACUGUUUAAAAAAACAAAAAAACAAAAAACAAAAAAAAAACAAAACUUAGCAAUAGUAGAAUAAGAUGCGAAUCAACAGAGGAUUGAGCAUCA | 2.64
